Published values gathered from unrelated publications.
Compare with care: the assays were run in different laboratories.
T1: CREB1 1-100 (Rattus norvegicus); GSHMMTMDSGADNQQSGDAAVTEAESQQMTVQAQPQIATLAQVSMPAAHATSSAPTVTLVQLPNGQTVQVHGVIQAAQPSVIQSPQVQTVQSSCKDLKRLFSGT
B1: PDCL (Homo sapiens, UniProt Q13371); sequence looked up; chain MTTLDDKLLGEKLQYYYSSSEDEDSDHEDKDRGRCAPASSSVPAEAELAGEGISVNTGPKGVINDWRRFKQLETEQREEQCREMERLIKKLSMTCRSHLDEEEEQQKQKDLQEKISGKMTLKEFAIMNEDQDDEEFLQQYRKQRMEEMRQQLHKGPQFKQVFEISSGEGFLDMIDKEQKSIVIMVHIYEDGIPGTEAMNGCMICLAAEYPAVKFCKVKSSVIGASSQFTRNALPALLIYKGGELIGNFVRVTDQLGDDFFAVDLEAFLQEFGLLPEKEVLVLTSVRNSATCHSEDSDLEID
B2: EIF2S2 1-191 (Homo sapiens, UniProt P20042); sequence looked up; chain MSGDEMIFDPTMSKKKKKKKKPFMLDEEGDTQTEETQPSETKEVEPEPTEDKDLEADEEDTRKKDASDDLDDLNFFNQKKKKKKTKKIFDIDEAEEGVKDLKIESDVQEPTEPEDDLDIMLGNKKKKKKNVKFPDEDEILEKDEALEDEDNKKDDGISFSNQTGPAWAGSERDYTYEELLNRVFNIMREKN
B3: POLR2A 1356-1767 (Homo sapiens, UniProt P24928); sequence looked up; chain RTTSNDIVEIFTVLGIEAVRKALERELYHVISFDGSYVNYRHLALLCDTMTCRGHLMAITRHGVNRQDTGPLMKCSFEETVDVLMEAAAHGESDPMKGVSENIMLGQLAPAGTGCFDLLLDAEKCKYGMEIPTNIPGLGAAGPTGMFFGSAPSPMGGISPAMTPWNQGATPAYGAWSPSVGSGMTPGAAGFSPSAASDASGFSPGYSPAWSPTPGSPGSPGPSSPYIPSPGGAMSPSYSPTSPAYEPRSPGGYTPQSPSYSPTSPSYSPTSPSYSPTSPNYSPTSPSYSPTSPSYSPTSPSYSPTSPSYSPTSPSYSPTSPSYSPTSPSYSPTSPSYSPTSPSYSPTSPSYSPTSPSYSPTSPSYSPTSPSYSPTSPSYSPTSPSYSPTSPNYSPTSPNYTPTSPSYSPTSP
B4: POMP (Homo sapiens, UniProt Q9Y244); chain MNARGLGSELKDSIPVTELSASGPFESHDLLRKGFSCVKNELLPSHPLELSEKNFQLNQDKMNFSTLRNIQGLFAPLKLQMEFKAVQQVQRLPFLSSSNLSLDVLRGNDETIGFEDILNDPSQSEVMGEPHLMVEYKLGLL
B5: PUM1 589-701 (Homo sapiens, UniProt Q14671); sequence looked up; chain ISSSAAQAAVAAAAASANGAAGGLAGTTNGPFRPLGTQQPQPQPQQQPNNNLASSSFYGNNSLNSNSQSSSLFSQGSAQPANTSLGFGSSSSLGATLGSALGGFGTAVANSNT
B6: KtrA/KtrC heteromeric RCK ring (Bacillus subtilis); chain 1 MGRIKNKQFAVIGLGRFGGSICKELHRMGHEVLAVDINEEKVNAYASYATHAVIANATEENELLSLGIRNFEYVIVAIGANIQASTLTTLLLKELDIPNIWVKAQNYYHHKVLEKIGADRIIHPEKDMGVKIAQSLSDENVLNYIDLSDEYSIVELLATRKLDSKSIIDLNVRAKYGCTILAIKHHGDICLSPAPEDIIREQDCLVIMGHKKDIKRFENEGM; chain 2 MKKEFAVIGLGRFGGSICKALSEEGVEVMAMDIDEDKVNEYAKIASHAVIGDSTDESVLKNLGLRNFDHVIVAIGENIQASILTTLILKELGVHTITVKAQNDYHEKVLSKIGADHIVHPERDMAKRIAHNIVSNNVLDYLELSEEHSLVEIVANSRLAGNTLLDLDIRAKYGINIVAIKRGKEVIVSPLATEVIHQEDILIVIGSVTDISRFEKRVLHTK
B7: PAP2 D236A/D238A (Saccharomyces cerevisiae, UniProt P53632); sequence looked up; chain MGAKSVTASSSKKIKNRHNGKVKKSKKIKKVRKPQKSISLNDENEVEILPSRNEQETNKLPKDHVTADGILVLEHKSDDDEGFDVYDGHFDNPTDIPSTTEESKTPSLAVHGDEKDLANNDDFISLSASSEDEQAEQEEEREKQELEIKKEKQKEILNTDYPWILNHDHSKQKEISDWLTFEIKDFVAYISPSREEIEIRNQTISTIREAVKQLWPDADLHVFGSYSTDLYLPGSAIACVVTSELGGKESRNNLYSLASHLKKKNLATEVEVVAKARVPIIKFVEPHSGIHIDVSFERTNGIEAAKLIREWLDDTPGLRELVLIVKQFLHARRLNNVHTGGLGGFSIICLVFSFLHMHPRIITNEIDPKDNLGVLLIEFFELYGKNFGYDDVALGSSDGYPVYFPKSTWSAIQPIKNPFSLAIQDPGDESNNISRGSFNIRDIKKAFAGAFDLLTNRCFELHSATFKDRLGKSILGNVIKYRGKARDFKDERGLVLNKAIIENENYHKKRSRIIHDEDFAEDTVTSTATATTTDDDYEITNPPAKKAKIEEKPESEPAKRNSGETYITVSSEDDDEDGYNPYTL
B8: SIS1 residues 1-121 (Saccharomyces cerevisiae, UniProt P25294); chain SMVKETKLYDLLGVSPSANEQELKKGYRKAALKYHPDKPTGDTEKFKEISEAFEILNDPQKREIYDQYGLEAARSGGPSFGPGGPGGAGGAGGFPGGAGGFSGGHAFSNEDAFNIFSQFFGG
B9: SSPN (Oryctolagus cuniculus, UniProt P82352); sequence looked up; chain MGKDRQPRGQQRQGDAAGPDDPGPKKGAGTREQRGEEEAQTCCGCRFPLLLALLQLALGVAVTVVGFLMASVSSSLLVRATPYWAGIIVCVVAYLGLFMLCVSYQVDERTCIQFSMKLLYFVLSALGLVVCVLAVAFAAHHYSLLTHLTCENAPDSCQCKLPSSEPLSRTFVYRDVTDCTSITGTFQVFLLVQMVLNLVCGLVCLVACFVMWKHRYQVFYVGVRMCPLSASEGQQQKV
B10: PTK2 102-252 (Homo sapiens, UniProt Q05397); sequence looked up; chain MGVSSVREKYELAHPPEEWKYELRIRYLPKGFLNQFTEDKPTLNFFYQQVKSDYMLEIADQVDQEIALKLGCLEIRRSYWEMRGNALEKKSNYEVLEKDVGLKRFFPKSLLDSVKAKTLRKLIQQTFRQFANLNREESILKFFEILSPVYR
B11: ATG11 322-576 (Saccharomyces cerevisiae, UniProt Q12527); sequence looked up; chain MFTPNESKFELEDQMAESFEVLVSEMRTRSRNVLDKEEEEFNSQEFLKSMNVMLEKDKKESVKTLFTISQALYSQIGELIDLKKSLQKHAVAILGNIAFTQMEILGIKRLLLNECNKDLELYKKYEVEFAQVEDLPLIYGLYLIEKYRRLSWFQQILSFISNFNQDLELFKQNELRTRNKWVKNFGSIATVFCEDLLSSSDFKRLNEYHSHTSPPNEDEEDENENSIANYRQDLVKVSQAIDNYMTQIKETDVSE
B12: RAB32 Q85L (Homo sapiens, UniProt Q13637); sequence looked up; chain MAGGGAGDPGLGAAAAPAPETREHLFKVLVIGELGVGKTSIIKRYVHQLFSQHYRATIGVDFALKVLNWDSRTLVRLQLWDIAGLERFGNMTRVYYKEAVGAFVVFDISRSSTFEAVLKWKSDLDSKVHLPNGSPIPAVLLANKCDQNKDSSQSPSQVDQFCKEHGFAGWFETSAKDNINIEEAARFLVEKILVNHQSFPNEENDVDKIKLDQETLRAENKSQCC
B13: TAF4 Q1 domain, 428-492 (Homo sapiens, UniProt O00268); chain GSHMTPTVLAPRLPQPPQNPTNIQNFQLPPGMVLVRSENGQLLMIPQQALAQMQAQAHAQPQTTMAPRP
B14: RRP41 1-246 (Saccharomyces cerevisiae, UniProt P46948); chain MSRLEIYSPEGLRLDGRRWNELRRFESSINTHPHAADGSSYMEQGNNKIITLVKGPKEPRLKSQMDTSKALLNVSVNITKFSKFERSKSSHKNERRVLEIQTSLVRMFEKNVMLNIYPRTVIDIEIHVLEQDGGIMGSLINGITLALIDAGISMFDYISGISVGLYDTTPLLDTNSLEENAMSTVTLGVVGKSEKLSLLLVEDKIPLDRLENVLAIGIAGAHRVRDLMDEELRKHAQKRVSNASAR
B15: PUM1 701-774 (Homo sapiens, UniProt Q14671); sequence looked up; chain TGSGSRRDSLTGSSDLYKRTSSSLTPIGHSFYNGLSFSSSPGPVGMPLPSQGPGHSQTPPPSLSSHGSSSSLNL
B16: IGFBP7 30-159 (Homo sapiens, UniProt Q16270); chain DTCGPCEPASCPPLPPLGCLLGETRDACGCCPMCARGEGEPCGGGGAGRGYCAPGMECVKSRKRRKGKAGAAAGGPGVSGVCVCKSRYPVCGSDGTTYPSGCQLRAASQRAESRGEKAITQVSKGTCEQG
B17: POLDIP2 52-368 (Homo sapiens, UniProt Q9Y2S7); sequence looked up; chain SSRNRPEGKVLETVGVFEVPKQNGKYETGQLFLHSIFGYRGVVLFPWQARLYDRDVASAAPEKAENPAGHGSKEVKGKTHTYYQVLIDARDCPHISQRSQTEAVTFLANHDDSRALYAIPGLDYVSHEDILPYTSTDQVPIQHELFERFLLYDQTKAPPFVARETLRAWQEKNHPWLELSDVHRETTENIRVTVIPFYMGMREAQNSHVYWWRYCIRLENLDSDVVQLRERHWRIFSLSGTLETVRGRGVVGREPVLSKEQPAFQYSSHVSLQASSGHMWGTFRFERPDGSHFDVRIPPFSLESNKDEKTPPSGLHW
B18: Sgip1 69-156 (Mus musculus, UniProt Q8VD37); chain AEIDWERYNSPELDEEGYSIRPEEPGSTKGKHFYSSSESEEEEESHKKFNIKIKPLQSKDVLKNAATVDELKASIGNIALSPSPVRKS
B19: EFR3A 721-791 I763A (Homo sapiens, UniProt Q14156); chain SNTEEITFEALKKAIDTSGMEEQEKEKRRLVIEKFQKAPFEEAAAQCESKANLLHDRLAQILELTIRPPPS
Chain of UniProt P61823 (whole entry, unmodified, looked up): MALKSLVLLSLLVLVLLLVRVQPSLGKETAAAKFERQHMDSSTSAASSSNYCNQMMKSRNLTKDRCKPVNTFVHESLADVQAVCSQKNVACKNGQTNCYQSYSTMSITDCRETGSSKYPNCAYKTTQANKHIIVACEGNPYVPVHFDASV
Chain of UniProt P38792 (whole entry, looked up): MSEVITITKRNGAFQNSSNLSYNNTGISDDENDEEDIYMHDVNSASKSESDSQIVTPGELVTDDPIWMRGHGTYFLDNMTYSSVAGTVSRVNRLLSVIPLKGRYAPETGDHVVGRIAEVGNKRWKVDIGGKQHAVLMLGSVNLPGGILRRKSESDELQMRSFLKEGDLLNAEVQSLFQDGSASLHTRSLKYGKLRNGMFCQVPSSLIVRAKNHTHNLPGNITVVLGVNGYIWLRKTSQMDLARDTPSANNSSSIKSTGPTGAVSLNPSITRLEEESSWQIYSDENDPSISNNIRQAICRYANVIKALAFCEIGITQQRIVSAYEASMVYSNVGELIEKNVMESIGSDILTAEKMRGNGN
Chain of UniProt Q96CV9 (whole entry, looked up): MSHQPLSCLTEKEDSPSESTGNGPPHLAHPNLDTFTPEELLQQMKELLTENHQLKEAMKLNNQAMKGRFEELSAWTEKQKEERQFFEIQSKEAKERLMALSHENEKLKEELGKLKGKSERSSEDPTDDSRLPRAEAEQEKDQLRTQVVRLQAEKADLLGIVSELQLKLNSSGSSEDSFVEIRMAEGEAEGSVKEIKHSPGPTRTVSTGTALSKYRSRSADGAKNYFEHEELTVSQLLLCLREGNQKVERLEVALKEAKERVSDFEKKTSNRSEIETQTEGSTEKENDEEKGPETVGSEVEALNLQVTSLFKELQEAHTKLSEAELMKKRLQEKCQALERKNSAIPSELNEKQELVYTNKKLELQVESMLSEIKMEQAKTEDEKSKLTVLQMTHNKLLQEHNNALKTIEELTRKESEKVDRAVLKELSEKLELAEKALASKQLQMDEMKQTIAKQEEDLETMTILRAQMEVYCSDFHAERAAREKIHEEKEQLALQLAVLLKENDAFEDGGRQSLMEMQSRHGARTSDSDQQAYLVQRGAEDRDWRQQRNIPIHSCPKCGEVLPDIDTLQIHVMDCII
Chain of UniProt O95456 (whole entry, looked up): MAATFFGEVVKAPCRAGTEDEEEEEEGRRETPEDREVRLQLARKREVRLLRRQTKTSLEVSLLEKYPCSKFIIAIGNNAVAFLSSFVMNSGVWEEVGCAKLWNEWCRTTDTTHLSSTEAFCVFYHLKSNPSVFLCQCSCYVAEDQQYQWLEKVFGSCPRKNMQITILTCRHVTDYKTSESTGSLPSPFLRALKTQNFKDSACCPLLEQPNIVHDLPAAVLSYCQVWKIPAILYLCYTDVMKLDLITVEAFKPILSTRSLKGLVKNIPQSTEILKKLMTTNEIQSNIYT
Chain of UniProt O43823 (whole entry, looked up): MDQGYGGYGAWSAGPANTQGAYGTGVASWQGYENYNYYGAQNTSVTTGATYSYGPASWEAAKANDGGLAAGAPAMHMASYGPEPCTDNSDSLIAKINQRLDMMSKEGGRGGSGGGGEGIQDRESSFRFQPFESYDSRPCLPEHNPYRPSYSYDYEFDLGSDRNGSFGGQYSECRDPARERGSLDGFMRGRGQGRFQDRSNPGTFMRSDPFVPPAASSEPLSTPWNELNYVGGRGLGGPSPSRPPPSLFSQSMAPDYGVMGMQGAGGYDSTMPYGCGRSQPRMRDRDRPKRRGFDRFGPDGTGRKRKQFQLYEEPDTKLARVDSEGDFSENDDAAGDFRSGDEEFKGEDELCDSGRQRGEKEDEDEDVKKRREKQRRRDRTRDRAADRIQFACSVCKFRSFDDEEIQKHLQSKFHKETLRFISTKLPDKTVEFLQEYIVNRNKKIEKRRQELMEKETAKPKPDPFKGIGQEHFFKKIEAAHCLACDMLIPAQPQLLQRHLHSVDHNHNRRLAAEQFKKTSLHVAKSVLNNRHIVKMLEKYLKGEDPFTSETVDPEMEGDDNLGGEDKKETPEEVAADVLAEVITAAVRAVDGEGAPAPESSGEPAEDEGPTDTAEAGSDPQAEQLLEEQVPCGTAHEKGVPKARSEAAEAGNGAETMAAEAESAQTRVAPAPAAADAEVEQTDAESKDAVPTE
Chain of UniProt O95210 (whole entry, looked up): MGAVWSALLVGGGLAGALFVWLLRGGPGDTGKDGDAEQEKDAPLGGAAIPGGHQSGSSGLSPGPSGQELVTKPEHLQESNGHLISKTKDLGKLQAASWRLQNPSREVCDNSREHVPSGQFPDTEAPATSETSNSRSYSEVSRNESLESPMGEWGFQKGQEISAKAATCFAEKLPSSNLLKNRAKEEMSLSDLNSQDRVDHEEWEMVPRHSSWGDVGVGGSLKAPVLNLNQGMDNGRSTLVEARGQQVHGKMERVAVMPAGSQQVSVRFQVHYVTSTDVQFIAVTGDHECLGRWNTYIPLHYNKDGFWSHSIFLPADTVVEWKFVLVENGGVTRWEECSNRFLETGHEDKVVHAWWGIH
Chain of UniProt O32081 (whole entry, looked up): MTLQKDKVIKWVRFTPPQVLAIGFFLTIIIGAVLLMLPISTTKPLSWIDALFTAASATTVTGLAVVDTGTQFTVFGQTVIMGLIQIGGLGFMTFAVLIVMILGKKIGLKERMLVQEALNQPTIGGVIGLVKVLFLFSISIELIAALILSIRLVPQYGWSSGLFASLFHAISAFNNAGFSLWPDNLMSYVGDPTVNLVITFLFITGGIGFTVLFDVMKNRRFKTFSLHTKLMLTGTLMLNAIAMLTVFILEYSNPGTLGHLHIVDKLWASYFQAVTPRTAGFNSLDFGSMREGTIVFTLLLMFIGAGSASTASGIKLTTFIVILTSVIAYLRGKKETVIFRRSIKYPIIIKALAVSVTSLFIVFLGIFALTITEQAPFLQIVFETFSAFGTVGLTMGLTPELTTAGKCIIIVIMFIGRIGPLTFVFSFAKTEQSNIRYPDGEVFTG
Chain of UniProt Q28635 (whole entry, looked up): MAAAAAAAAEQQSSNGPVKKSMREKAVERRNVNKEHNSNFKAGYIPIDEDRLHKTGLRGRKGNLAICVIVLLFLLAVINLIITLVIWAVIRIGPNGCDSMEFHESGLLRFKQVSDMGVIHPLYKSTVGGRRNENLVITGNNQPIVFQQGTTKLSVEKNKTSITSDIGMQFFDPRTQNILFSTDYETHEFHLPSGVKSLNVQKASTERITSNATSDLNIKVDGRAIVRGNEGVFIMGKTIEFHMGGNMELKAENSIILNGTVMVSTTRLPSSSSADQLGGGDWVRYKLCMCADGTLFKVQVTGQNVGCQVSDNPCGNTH
Chain of UniProt Q12142 (whole entry, looked up): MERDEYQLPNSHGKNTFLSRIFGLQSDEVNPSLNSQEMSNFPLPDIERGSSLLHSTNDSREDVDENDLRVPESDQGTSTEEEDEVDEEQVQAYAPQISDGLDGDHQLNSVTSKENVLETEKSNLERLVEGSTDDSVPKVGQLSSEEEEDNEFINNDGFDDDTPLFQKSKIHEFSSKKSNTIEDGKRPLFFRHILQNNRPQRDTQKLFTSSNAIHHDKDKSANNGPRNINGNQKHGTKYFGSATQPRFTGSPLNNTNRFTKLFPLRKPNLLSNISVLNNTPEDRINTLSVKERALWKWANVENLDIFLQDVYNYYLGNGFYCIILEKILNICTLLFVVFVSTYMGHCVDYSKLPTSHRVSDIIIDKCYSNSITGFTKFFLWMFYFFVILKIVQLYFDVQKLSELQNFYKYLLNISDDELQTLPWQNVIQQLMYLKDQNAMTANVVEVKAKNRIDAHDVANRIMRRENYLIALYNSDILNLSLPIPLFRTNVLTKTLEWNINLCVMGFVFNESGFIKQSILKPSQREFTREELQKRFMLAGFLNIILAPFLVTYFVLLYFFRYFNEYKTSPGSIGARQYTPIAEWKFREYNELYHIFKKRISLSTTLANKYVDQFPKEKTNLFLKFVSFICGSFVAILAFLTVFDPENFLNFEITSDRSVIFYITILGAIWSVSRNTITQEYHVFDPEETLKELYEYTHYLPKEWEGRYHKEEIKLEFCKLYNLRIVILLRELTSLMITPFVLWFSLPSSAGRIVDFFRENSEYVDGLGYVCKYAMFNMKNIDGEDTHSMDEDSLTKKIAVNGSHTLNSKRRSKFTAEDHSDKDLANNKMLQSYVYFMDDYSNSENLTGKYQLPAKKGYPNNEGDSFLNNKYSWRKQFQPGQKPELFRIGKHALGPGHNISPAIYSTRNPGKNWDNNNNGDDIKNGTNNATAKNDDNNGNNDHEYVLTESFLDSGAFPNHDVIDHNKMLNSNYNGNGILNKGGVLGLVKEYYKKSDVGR
Chain of UniProt P48643 (whole entry, looked up): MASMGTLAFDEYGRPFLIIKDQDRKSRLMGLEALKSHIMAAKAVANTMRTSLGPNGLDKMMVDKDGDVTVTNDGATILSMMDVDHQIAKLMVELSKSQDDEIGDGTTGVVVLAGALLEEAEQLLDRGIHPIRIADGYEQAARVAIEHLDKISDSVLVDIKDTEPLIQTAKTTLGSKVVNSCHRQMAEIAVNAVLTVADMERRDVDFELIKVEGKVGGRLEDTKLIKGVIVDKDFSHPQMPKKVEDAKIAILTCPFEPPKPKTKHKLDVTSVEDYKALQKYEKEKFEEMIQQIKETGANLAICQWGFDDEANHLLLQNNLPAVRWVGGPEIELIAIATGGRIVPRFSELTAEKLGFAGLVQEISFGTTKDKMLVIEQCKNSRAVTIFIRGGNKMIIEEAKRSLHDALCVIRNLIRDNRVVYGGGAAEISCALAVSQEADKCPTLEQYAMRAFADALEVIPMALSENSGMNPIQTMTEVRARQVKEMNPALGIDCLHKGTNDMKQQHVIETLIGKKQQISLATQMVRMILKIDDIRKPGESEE
Chain of UniProt Q9BXW4 (whole entry, looked up): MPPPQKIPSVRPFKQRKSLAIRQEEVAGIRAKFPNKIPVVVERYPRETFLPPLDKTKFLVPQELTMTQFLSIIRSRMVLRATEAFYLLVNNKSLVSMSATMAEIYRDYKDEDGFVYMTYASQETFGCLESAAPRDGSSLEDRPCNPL

| Sequence | partner | assay | test system | setting | binding |
| --- | --- | --- | --- | --- | --- |
| B1 (PDCL) | CCT5 (Homo sapiens, UniProt P48643) | cross-linking | – | – | binds |
| B2 (EIF2S2 1-191) | EIF5 196-431 (Homo sapiens, UniProt P55010) | NMR titration | – | – | binds |
| B3 (POLR2A 1356-1767) | AKAP8 (Homo sapiens, UniProt O43823) | pull-down | – | – | binds |
| B4 (POMP) | PSMG1 (Homo sapiens, UniProt O95456) | cryo-EM | – | – | binds |
| KETCAAKFERQHMDS (RNASE1 S-peptide 27-41 A4C (Bos taurus, UniProt P61823); Cys4 NTB mixed disulfide; sequence looked up) | RNASE1 47-150 V118C (Bos taurus, UniProt P61823) | disulfide cross-linking | peptide | – | binds |
| B5 (PUM1 589-701) | CNOT1/CNOT2/CNOT3 C-terminal NOT module 1833-2361 | pull-down | – | – | binds |
| B6 (KtrA/KtrC heteromeric RCK ring) | ktrB 1-445 (Bacillus subtilis, UniProt O32081) | SEC | – | – | binds |
| SNEWILPRGPYK (engineered peptide) | EPHB2 19-543 (Homo sapiens, UniProt P29323) | SPR | peptide | – | binds |
| B7 (PAP2 D236A/D238A) | MTR4 (Saccharomyces cerevisiae, UniProt P47047) | HDX-MS | – | – | binds |
| HEEWEMVPRHS (STBD1 200-210 (Homo sapiens, UniProt O95210)) | MAP1LC3C (Homo sapiens, UniProt Q9BXW4) | ITC | – | – | binds |
| B8 (SIS1 residues 1-121) | SSA1 T201A (Saccharomyces cerevisiae, UniProt P10591) | NMR titration | – | added: ATP | binds |
| B9 (SSPN) | SGCB (Oryctolagus cuniculus, UniProt Q28635) | cryo-EM structure | – | – | binds |
| B10 (PTK2 102-252) | PRKCQ (Homo sapiens, UniProt Q04759) | pull-down | – | – | binds |
| B11 (ATG11 322-576) | ATG9 2-318 (Saccharomyces cerevisiae, UniProt Q12142) | pull-down | – | – | binds |
| B12 (RAB32 Q85L) | OPTN (Homo sapiens, UniProt Q96CV9) | pull-down | – | – | binds |
| B13 (TAF4 Q1 domain, 428-492) | T1, CREB1 1-100 (Rattus norvegicus) | NMR | – | – | binds |
| B14 (RRP41 1-246) | RRP4 (Saccharomyces cerevisiae, UniProt P38792) | cryo-EM | – | – | binds |
| B15 (PUM1 701-774) | CNOT1/CNOT2/CNOT3 NOT module 1833-2361 | pull-down | – | – | binds |
| B16 (IGFBP7 30-159) | CD93 25-347 L284A (Homo sapiens, UniProt Q9NPY3) | ITC | – | 25 °C | binds |
| B17 (POLDIP2 52-368) | CLPX/CLPP CLPP 14-mer, CLPX hexamer, ATPγS-bound 65-633 (Homo sapiens) | co-IP | – | – | binds |
| B18 (Sgip1 69-156) | AP2A2/AP2B1/AP2M1/AP2S1 core, lacking appendage domains (Mus musculus) | pull-down | – | – | binds |
| B19 (EFR3A 721-791 I763A) | TTC7B/FAM126A FAM126A 1-308 (Homo sapiens) | BLI | – | – | binds |

Excerpt of the above:
| Sequence | partner | assay | test system | setting | binding |
| --- | --- | --- | --- | --- | --- |
| SNEWILPRGPYK (engineered peptide) | EPHB2 19-543 (Homo sapiens, UniProt P29323) | SPR | peptide | – | binds |
